Results gathered from unrelated publications.
Lines come from different studies, so protocols differ. Values joined by “and” are separate records of one study, mostly repeats; a detail may differ. ± gives the spread as reported.
Cell line: MDA-MB-231

SMILES | observed | method | time | notes | IC50
CN(C)c1cc[n+](Cc2cccc(C[n+]3ccc(N(C)C)cc3)c2)cc1 | cell growth or viability | MTT | 72 h |  | 28.4 µM
O=C1CS/C(=N\N=C2/C(=O)N(CCn3ncc4c(=O)[nH]cnc43)c3ccc(Cl)cc32)N1 | cell growth or viability | SRB | 72 h |  | 51.3 µM
O=C1c2ccc(O)cc2OC1(O)Cc1ccc(O)c(O)c1 (centres unmarked) | cell growth or viability | MTT | 72 h |  | > 400 µM
CCn1c[n+](CC)c2ccccc21 | cell growth or viability | crystal violet | 96 h |  | > 100 µM
O=C(/C=C/c1ccc2c(c1)OCO2)/C=C/c1cn(-c2ccccc2)nc1C(=O)O | cell growth |  | 72 h |  | 15.8 ± 0.88 µM
Cc1ccc(-n2cc(CSc3nc4ccccc4n3Cc3cn(-c4ccc(C)cc4)nn3)nn2)cc1 | cell growth or viability | MTT |  |  | 31.4 µg/mL
Oc1ccc(Br)cc1C=NNC(=S)Nc1ccccc1 | cell growth or viability | MTT | 72 h |  | 1.5 µM
CC(C)c1cccc(C(C)C)c1[N+]#[C][Pd-2]([Cl])([Cl])[C]#[N+]c1c(C(C)C)cccc1C(C)C | cell growth or viability |  |  |  | > 100 µM
CCN(CC)c1ccc(CNC(=O)[C@@H]2CC[C@@H]3CCN(C(=O)Cc4ccccc4)C[C@H](NC(=O)[C@H](C)NC)C(=O)N32)cc1 | cell growth or viability |  | 96 h |  | 0.675 µM
Oc1ccccc1-n1nc(-c2ccccc2)n[n+]1-c1ccccc1 | cell growth or viability | resazurin | 72 h |  | 320 µM
Cc1cc(-c2ccccc2)c2ccc3c(-c4ccccc4)cc(C)[n+]4c3c2[n+]1[Re-2]4(=[C]=O)(=[C]=O)(=[C]=O)[O]C(=O)c1cccnc1 | cell growth or viability | resazurin | 72 h |  | 0.591 µM
C[C@]12CC/C(=N\OCCN3CCCCC3)C=C1CCC1C2CC[C@]2(C)/C(=C/c3ccccn3)CCC12 (some centres unmarked) | cell growth or viability | MTT | 72 h |  | 19.1 µM
Cc1cc(C)c(-n2c3c([n+](-c4c(C)cc(C)cc4C)[c]2[Cu-][Cl])-c2cccc4cccc-3c24)c(C)c1 | cell growth or viability | MTT | 72 h |  | 5 µM
Cc1cc(/C=C/C#N)cc(C)c1Oc1cc(Nc2ccc(C#N)cn2)nc2cnccc12 |  |  | 48 h |  | 16.4 ± 3.1 µM
CCC(C(=O)O)C1CCC(C)C(C(C)C(O)C(C)C(=O)C(CC)C2OC3(C=CC(=O)C4(CCC(C)(C5CCC(O)(CC)C(C)O5)O4)O3)C(C)CC2C)O1 (centres unmarked) | cell growth or viability | MTT |  |  | 12.1 µM
Cn1ccn(N=Cc2ccccc2SSc2ccccc2C=Nn2ccn(C)c2=S)c1=S | cell growth or viability | MTT | 72 h |  | 0.35 µM
Cc1cc(C)c([N+]#[C][Pd-]([Cl])([Cl])=[C](Nc2ccc(CN[C](NC(C)(C)C)=[Au][Cl])cc2)Nc2c(C)cc(C)cc2C)c(C)c1 | cell growth or viability |  |  |  | > 100 µM
CCCCCCCCCCCCCCCC(=O)Oc1ccc(CO)cc1OC(=O)CCCCCCCCCCCCCCC | cell viability | MTT | 48 h | serum-free medium | inactive
CN[C@@H](C)C(=O)N[C@H]1CN(C(=O)Cc2ccccc2)CC[C@H]2CC[C@@H](C(=O)NCc3cccc(Br)c3)N2C1=O | cell growth or viability |  | 96 h |  | 0.327 µM
O=C(CNc1nc(Cl)nc(NNC(=O)c2ccc(Nc3nc(Nc4ccc(C(=O)NNc5nc(Cl)nc(NCC(=O)NO)n5)cc4)nc(Nc4ccc(C(=O)NNc5nc(Cl)nc(NCC(=O)NO)n5)cc4)n3)cc2)n1)NO | cell growth or viability | MTT | 72 h |  | 0.188 µM

SMILES | observed | method | time | notes | IC50
CCn1cc[n+](CC)c1 | cell growth or viability | crystal violet | 96 h |  | > 100 µM
COc1c(C)c(OS(=O)(=O)c2ccccc2)c(C)c(O)c1C(=O)/C=C/c1ccccc1 | cell growth or viability | SRB | 72 h |  | 26.1 µM
COc1ccc([C@@H]2COc3cc(O)ccc3C2)c(OC)c1 | cell growth or viability | MTT | 72 h |  | 33.5 µM
C[C@@H]1O[C@@H](OC(=O)/C=C/c2ccc(O)cc2)[C@H](OC(=O)/C=C/c2ccc(O)cc2)[C@H](O)[C@H]1O | cell growth or viability | MTT |  |  | 17.7 µM
COc1ccc(CNC[C@@](O)(COCc2ccccc2)[C@@H]2CC[C@@H](C)C[C@H]2OCc2ccccc2)cc1 | cell growth or viability | MTT | 72 h |  | 3.2 µM
C=CC(OC(C)=O)c1ccc(OC)cc1 (centres unmarked) |  | MTT | 24 h |  | > 50 µM
CC(C)=CCOc1ccc(-c2coc3cc4c(c(O)c3c2=O)C=CC(C)(C)O4)cc1 | cell growth or viability | MTT | 24 h |  | > 100 µM
Cc1cc(-c2ccccc2)c2ccc3c(-c4ccccc4)cc(C)nc3c2n1.[Cl-].[Cl-].[Ru+2].c1ccc(-c2ccccn2)nc1.c1ccc(-c2ccccn2)nc1 | cell viability | WST-1 | 72 h | dark | 5.55 µM
Cc1ccc(C(C)C)cc1.O=C(N=P(c1ccccc1)(c1ccccc1)c1ccccc1)c1ccccn1.[Cl-].[Cl-].[Ru+2] | cell growth or viability | MTT | 24 h |  | 2.61 µM and 2.64 µM
CC(=O)Oc1ccccc1C(=O)[O][Re-2]1(=[C]=O)(=[C]=O)(=[C]=O)[n+]2c(C)cc(-c3ccccc3)c3ccc4c(-c5ccccc5)cc(C)[n+]1c4c32 | cell growth or viability | resazurin | 72 h |  | 2.41 µM
CCCCCCN(CCCCCC)C1=[S+][Au-2]2([S]1)[c]1ccccc1-c1cccc[n+]12.F[P-](F)(F)(F)(F)F (centres unmarked) | cell growth or viability | MTT | 72 h |  | 1.23 µM
CC12CCC3c4ccc(OCCCOc5no[n+]([O-])c5S(=O)(=O)c5ccccc5)cc4CCC3C1CCC2=O (centres unmarked) | cell growth or viability | MTT | 48 h |  | 0.019 µM
C=CC(=C)CC[C@]1(C)[C@H](C)C[C@H](OC(=O)CCCCCCC)[C@@]23C(=C[C@H](OC(C)=O)C[C@@H]12)[C@@H](OC(C)=O)O[C@H]3OC(C)=O | cell growth or viability | SRB |  |  | 4.93 µM
C[C@@H]1CC[C@@H]([C@@](O)(COCc2ccccc2)Cn2cnc3ccccc32)[C@H](OCc2ccccc2)C1 | cell growth or viability | MTT | 72 h |  | 12.4 µM
COc1cc2c(cc1OCCCOc1no[n+]([O-])c1S(=O)(=O)c1ccccc1)CCC1C2CCC2(C)C(O)CCC12 (centres unmarked) | cell growth or viability | MTT | 48 h |  | 0.0212 µM
COC(=O)[C@@H]1CCCN1C(=O)[C@H](Cc1ccccc1)NC(=O)OC(C)(C)C | cell growth or viability | SRB |  |  | 16 µM
CCN(CC)c1ccc2c(c1)[O][Pd]([CH2]C#N)[N](Cc1ccccc1)c1ncccc1N=C2 | cell growth or viability | MTT | 48 h |  | 34.4 µM
CC/C(=C(\c1ccccc1)c1ccc(OCCN(C)CCCCCC(=O)NCCc2c[nH]c3ccc(OC)cc23)cc1)c1ccccc1 | cell survival | MTT | day 9 | dosed days 2, 4, 7 | 15.8 µM
CCOC(=O)C1CC(CC)C2C=CC3CCN(C(=O)C4CCC5C=CC6(CCCN6C(=O)C(Cc6ccccc6Cl)NC(C)=O)C(=O)N54)C3C(=O)N12 (centres unmarked) | cell migration |  |  |  | 26 µM
O=C(N=P12CN3CN(CN(C3)C1)C2)c1cccc[c]1[Au]([Cl])[Cl] | cell growth or viability | MTT | 24 h |  | > 125 µM

SMILES | observed | method | time | notes | IC50
Cc1cc(C=O)cc(C)c1Oc1cc(Nc2ccc(C#N)cc2)nc2cnccc12 |  |  | 48 h |  | 85.7 ± 8 µM
CN[C@@H](C)C(=O)N[C@H]1CN(C(=O)Cc2ccccc2)CC[C@H]2CC[C@@H](C(=O)NCc3cccc(Cl)c3)N2C1=O | cell growth or viability |  | 96 h |  | 0.294 µM
COc1ccc(CNC[C@@](O)(COCc2ccc(F)cc2)[C@@H]2CC[C@@H](C)C[C@H]2OCc2ccc(F)cc2)cc1 | cell growth or viability | MTT | 72 h |  | 1.8 µM
O=[C]=[Re-2]1(=[C]=O)(=[C]=O)([O]C(=O)c2ccccn2)[n+]2ccc(-c3ccccc3)c3ccc4c(-c5ccccc5)cc[n+]1c4c32 | cell growth or viability | resazurin | 72 h |  | 1.23 µM
COc1cc(/C=N/NC(=O)c2cc3cc(Nc4nccc(-c5cccnc5)n4)ccc3[nH]2)cc(OC)c1 | cell growth or viability | MTT | 48 h |  | 13.6 µM
Cc1cc(C)c(N[C](NCc2cccc(N[C](Nc3c(C(C)C)cccc3C(C)C)=[Pd-]([Cl])([Cl])[C]#[N+]c3c(C(C)C)cccc3C(C)C)c2)=[Au][Cl])c(C)c1 | cell growth or viability |  |  |  | > 100 µM
CC(=O)N[C@@H](Cc1c[nH]c2ccccc12)C(=O)[O][Re-2]1(=[C]=O)(=[C]=O)(=[C]=O)[n+]2c(C)cc(-c3ccccc3)c3ccc4c(-c5ccccc5)cc(C)[n+]1c4c32 | cell growth or viability | resazurin | 72 h |  | 1.74 µM
Cc1cc(C)c(N[C](NCc2ccc(N[C](Nc3c(C(C)C)cccc3C(C)C)=[Pt-]([Cl])([Cl])[C]#[N+]c3c(C(C)C)cccc3C(C)C)cc2)=[Au][Cl])c(C)c1 | cell growth or viability |  |  |  | > 100 µM
CC(C)c1cccc(C(C)C)c1-n1c2c([n+](-c3c(C(C)C)cccc3C(C)C)[c]1[Au-][Cl])-c1cccc3cccc-2c13 | cell growth or viability | MTT | 72 h |  | 33 µM
COc1ccc(/C(=C(/CCn2cc(CN3C(=O)C4(OCCO4)c4cc(Br)ccc43)nn2)c2ccccc2)c2ccccc2)cc1 | cell growth or viability | MTT |  |  | > 100 µM
Cc1cc(C)c([N+]#[C][Pt-]([Cl])([Cl])=[C](Nc2cccc(CN[C](Nc3c(C)cc(C)cc3C)=[Au][Cl])c2)Nc2c(C)cc(C)cc2C)c(C)c1 | cell growth or viability |  |  |  | > 100 µM
C#CCOCC1=C(C(=O)OCC)C(c2cccc(Cl)c2)N2C(=N1)Sc1ccccc12 (centres unmarked) | cell growth or viability | MTT |  |  | 0.0637 µM
CN[C@@H](C)C(=O)N[C@H]1CN(C(=O)Cc2ccccc2)CC[C@H]2CC[C@@H](C(=O)NCc3ccccc3)N2C1=O | cell growth or viability |  | 96 h |  | 0.049 µM
C[C@@H]1CC[C@@H]([C@@](O)(CNCc2cccc(F)c2)COCc2ccccc2)[C@H](OCc2ccccc2)C1 | cell growth or viability | MTT | 72 h |  | 4.2 µM
CCCCCCCCCCCCCCCC(=O)Oc1ccc(CO)cc1OC(C)=O | cell viability | MTT | 48 h | serum-free medium | 6.4 ± 2 µg/mL
COc1ccc(/N=N/C(=S)N2CCOCC2)cc1 | cell growth or viability | resazurin | 48 h |  | > 50 µM
COC(=O)[C@@H](NC(=O)[C@@H](NC(=O)[C@@H](NC(=O)OC(C)(C)C)C(C)C)C(C)C)C(C)C | cell growth or viability | SRB |  |  | 30 µM
CC12CCC3c4ccc(Oc5no[n+]([O-])c5S(=O)(=O)c5ccccc5)cc4CCC3C1CCC2=O (centres unmarked) | cell growth or viability | MTT | 48 h |  | 0.423 µM
CCCCCCCCCCCCCCCOC(=O)/C=C/c1ccc(OC)c(O)c1 | cell viability | MTT | 48 h | serum-free medium | 3.4 ± 0.8 µg/mL

For quick reference, copied from above:
SMILES | observed | method | time | notes | IC50
CCC(C(=O)O)C1CCC(C)C(C(C)C(O)C(C)C(=O)C(CC)C2OC3(C=CC(=O)C4(CCC(C)(C5CCC(O)(CC)C(C)O5)O4)O3)C(C)CC2C)O1 (centres unmarked) | cell growth or viability | MTT |  |  | 12.1 µM
Cn1ccn(N=Cc2ccccc2SSc2ccccc2C=Nn2ccn(C)c2=S)c1=S | cell growth or viability | MTT | 72 h |  | 0.35 µM
Cc1cc(C)c([N+]#[C][Pd-]([Cl])([Cl])=[C](Nc2ccc(CN[C](NC(C)(C)C)=[Au][Cl])cc2)Nc2c(C)cc(C)cc2C)c(C)c1 | cell growth or viability |  |  |  | > 100 µM
CCCCCCCCCCCCCCCC(=O)Oc1ccc(CO)cc1OC(=O)CCCCCCCCCCCCCCC | cell viability | MTT | 48 h | serum-free medium | inactive
CN[C@@H](C)C(=O)N[C@H]1CN(C(=O)Cc2ccccc2)CC[C@H]2CC[C@@H](C(=O)NCc3cccc(Br)c3)N2C1=O | cell growth or viability |  | 96 h |  | 0.327 µM
O=C(CNc1nc(Cl)nc(NNC(=O)c2ccc(Nc3nc(Nc4ccc(C(=O)NNc5nc(Cl)nc(NCC(=O)NO)n5)cc4)nc(Nc4ccc(C(=O)NNc5nc(Cl)nc(NCC(=O)NO)n5)cc4)n3)cc2)n1)NO | cell growth or viability | MTT | 72 h |  | 0.188 µM
CCn1cc[n+](CC)c1 | cell growth or viability | crystal violet | 96 h |  | > 100 µM
COc1c(C)c(OS(=O)(=O)c2ccccc2)c(C)c(O)c1C(=O)/C=C/c1ccccc1 | cell growth or viability | SRB | 72 h |  | 26.1 µM
